{"data": "Measured values from different studies", "note": "Lines come from different studies, so protocols differ. Values joined by “and” are separate records of one study, mostly repeats; a detail may differ. Numbers after ± are the reported error. Where no end group is shown, it is not given here. The star is where a group is joined.", "sequence of UniProt O43614 (whole entry, unmodified, looked up)": "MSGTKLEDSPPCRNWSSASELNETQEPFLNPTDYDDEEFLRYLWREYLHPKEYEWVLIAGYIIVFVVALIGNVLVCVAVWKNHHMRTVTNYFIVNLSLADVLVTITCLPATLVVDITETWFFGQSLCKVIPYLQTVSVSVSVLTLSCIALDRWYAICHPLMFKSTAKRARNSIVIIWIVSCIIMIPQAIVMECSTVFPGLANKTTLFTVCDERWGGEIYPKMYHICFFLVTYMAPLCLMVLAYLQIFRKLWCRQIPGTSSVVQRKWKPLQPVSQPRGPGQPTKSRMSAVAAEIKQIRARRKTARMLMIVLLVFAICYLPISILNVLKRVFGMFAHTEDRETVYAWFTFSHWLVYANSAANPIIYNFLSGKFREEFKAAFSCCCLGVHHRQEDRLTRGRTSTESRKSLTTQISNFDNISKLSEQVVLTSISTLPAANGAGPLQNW", "sequence of UniProt P22303 (whole entry, looked up)": "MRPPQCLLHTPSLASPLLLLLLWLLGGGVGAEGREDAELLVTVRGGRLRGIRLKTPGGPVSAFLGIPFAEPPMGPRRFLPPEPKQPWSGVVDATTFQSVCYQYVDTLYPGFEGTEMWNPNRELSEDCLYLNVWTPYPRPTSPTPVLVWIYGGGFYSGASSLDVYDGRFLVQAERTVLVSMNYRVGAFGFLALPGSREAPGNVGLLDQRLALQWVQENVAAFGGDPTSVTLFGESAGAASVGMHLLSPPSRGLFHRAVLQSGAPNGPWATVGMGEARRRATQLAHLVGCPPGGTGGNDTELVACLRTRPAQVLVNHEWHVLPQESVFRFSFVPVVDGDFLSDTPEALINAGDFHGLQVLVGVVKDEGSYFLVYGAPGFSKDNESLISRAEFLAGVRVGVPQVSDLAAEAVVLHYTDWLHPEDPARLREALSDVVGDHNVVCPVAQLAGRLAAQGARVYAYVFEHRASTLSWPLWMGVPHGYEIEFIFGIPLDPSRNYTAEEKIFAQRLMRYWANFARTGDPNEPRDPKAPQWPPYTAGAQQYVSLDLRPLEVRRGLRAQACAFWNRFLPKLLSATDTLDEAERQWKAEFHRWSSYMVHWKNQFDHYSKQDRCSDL", "sequence of UniProt Q01959 (whole entry, looked up)": "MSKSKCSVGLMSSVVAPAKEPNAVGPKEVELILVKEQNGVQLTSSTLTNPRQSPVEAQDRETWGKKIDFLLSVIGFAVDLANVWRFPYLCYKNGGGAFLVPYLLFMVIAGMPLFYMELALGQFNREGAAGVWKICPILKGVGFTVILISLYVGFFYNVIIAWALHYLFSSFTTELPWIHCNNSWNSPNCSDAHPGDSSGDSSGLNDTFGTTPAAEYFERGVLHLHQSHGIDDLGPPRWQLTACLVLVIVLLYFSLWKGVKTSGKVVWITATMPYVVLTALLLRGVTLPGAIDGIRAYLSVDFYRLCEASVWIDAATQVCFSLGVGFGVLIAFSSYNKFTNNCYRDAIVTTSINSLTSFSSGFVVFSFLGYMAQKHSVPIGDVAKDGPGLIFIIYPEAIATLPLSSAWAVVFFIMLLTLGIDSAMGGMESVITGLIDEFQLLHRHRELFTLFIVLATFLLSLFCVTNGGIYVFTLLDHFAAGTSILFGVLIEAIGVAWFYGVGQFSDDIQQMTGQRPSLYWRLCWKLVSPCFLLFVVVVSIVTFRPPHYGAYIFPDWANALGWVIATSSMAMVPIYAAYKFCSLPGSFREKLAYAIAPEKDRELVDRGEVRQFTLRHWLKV", "sequence of UniProt P41586 (whole entry, looked up)": "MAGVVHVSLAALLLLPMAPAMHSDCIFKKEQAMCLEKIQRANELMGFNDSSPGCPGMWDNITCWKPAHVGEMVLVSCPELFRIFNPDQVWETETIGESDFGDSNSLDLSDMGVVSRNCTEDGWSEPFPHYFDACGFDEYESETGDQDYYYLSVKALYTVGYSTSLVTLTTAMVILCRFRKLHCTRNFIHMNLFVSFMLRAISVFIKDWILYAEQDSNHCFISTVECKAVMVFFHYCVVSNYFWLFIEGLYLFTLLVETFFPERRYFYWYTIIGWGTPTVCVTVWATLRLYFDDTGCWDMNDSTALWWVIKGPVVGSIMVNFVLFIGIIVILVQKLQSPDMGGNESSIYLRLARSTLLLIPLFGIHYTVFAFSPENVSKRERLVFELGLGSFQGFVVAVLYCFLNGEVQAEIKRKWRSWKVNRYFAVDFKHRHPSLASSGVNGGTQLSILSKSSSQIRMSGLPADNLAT", "sequence of UniProt O88703 (whole entry, unmodified, looked up)": "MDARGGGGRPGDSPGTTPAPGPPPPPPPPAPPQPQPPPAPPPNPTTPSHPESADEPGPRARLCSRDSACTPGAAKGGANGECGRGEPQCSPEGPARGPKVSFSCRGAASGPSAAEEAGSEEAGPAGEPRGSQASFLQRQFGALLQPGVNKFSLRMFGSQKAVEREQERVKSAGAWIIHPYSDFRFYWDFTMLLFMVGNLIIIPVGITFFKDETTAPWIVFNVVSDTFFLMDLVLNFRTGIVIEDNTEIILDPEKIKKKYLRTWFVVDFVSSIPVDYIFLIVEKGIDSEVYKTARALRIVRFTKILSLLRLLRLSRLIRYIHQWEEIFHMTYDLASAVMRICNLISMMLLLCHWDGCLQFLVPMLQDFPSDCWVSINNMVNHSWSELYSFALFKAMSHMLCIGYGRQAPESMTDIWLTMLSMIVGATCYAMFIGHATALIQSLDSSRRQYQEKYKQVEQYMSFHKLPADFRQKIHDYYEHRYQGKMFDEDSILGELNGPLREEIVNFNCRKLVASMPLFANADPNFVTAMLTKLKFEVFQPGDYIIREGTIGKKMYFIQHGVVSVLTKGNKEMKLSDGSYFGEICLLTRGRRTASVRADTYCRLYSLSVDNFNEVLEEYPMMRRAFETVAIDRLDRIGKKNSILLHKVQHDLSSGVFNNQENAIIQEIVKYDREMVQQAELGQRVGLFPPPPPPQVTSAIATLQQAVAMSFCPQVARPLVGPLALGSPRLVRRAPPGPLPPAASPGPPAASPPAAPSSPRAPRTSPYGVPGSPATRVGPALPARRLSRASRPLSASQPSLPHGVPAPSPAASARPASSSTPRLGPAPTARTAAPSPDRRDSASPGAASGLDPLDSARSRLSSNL", "sequence of UniProt P34897 (whole entry, unmodified, looked up)": "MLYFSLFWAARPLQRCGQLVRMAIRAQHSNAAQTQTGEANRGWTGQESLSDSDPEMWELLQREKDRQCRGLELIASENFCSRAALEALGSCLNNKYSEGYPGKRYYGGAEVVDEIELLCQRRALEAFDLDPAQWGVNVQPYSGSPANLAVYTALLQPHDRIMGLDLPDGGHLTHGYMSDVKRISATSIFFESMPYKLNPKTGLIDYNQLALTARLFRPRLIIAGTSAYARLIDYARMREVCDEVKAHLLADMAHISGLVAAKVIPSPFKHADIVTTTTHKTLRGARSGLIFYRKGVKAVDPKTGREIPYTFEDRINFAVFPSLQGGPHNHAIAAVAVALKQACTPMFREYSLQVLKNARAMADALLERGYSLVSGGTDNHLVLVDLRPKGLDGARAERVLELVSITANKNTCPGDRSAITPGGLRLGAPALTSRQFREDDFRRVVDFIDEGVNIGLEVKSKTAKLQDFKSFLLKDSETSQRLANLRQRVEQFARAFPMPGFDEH", "sequence of UniProt P08253 (whole entry, looked up)": "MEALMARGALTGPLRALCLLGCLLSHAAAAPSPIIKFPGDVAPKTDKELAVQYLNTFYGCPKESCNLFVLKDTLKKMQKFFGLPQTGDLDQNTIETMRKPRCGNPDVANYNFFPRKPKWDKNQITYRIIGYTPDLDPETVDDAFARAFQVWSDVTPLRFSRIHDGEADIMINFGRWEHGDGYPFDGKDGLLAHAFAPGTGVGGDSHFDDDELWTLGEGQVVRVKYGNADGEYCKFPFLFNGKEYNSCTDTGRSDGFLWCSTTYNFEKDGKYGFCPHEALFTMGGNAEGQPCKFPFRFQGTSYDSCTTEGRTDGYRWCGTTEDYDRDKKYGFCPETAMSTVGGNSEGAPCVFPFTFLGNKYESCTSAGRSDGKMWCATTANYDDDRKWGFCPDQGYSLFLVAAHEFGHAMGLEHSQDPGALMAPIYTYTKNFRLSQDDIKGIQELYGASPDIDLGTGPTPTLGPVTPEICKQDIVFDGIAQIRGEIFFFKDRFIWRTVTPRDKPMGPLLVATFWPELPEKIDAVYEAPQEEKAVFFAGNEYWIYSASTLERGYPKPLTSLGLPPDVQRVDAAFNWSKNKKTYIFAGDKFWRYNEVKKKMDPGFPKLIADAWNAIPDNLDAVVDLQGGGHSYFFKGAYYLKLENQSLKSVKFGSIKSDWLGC"}
{"Substance": "Ac-TFELQGGGPRGVNL-NH2 (N-acetyl, C-amide)", "tested on": "Prothrombin (F2, Bos taurus, UniProt P00735)", "assay": "substrate, HPLC", "conditions": "pH 7.4, 25 °C, together with: thrombin 2.2 nM", "endpoint": "kcat/Km", "value": "88000 ± 20000 M⁻¹ s⁻¹"}
{"Substance": "cGMP", "tested on": "Potassium/sodium hyperpolarization-activated cyclic nucleotide-gated channel 2, C-terminal region (Hcn2, Mus musculus, UniProt O88703, T592A)", "assay": "binding, ITC", "endpoint": "−TΔS", "value": "12 kcal/mol"}
{"Substance": "PAALVAC(Mca) (Mca-labelled; Mca = COc1ccc2c(CC(=O)*)cc(=O)oc2c1)", "tested on": "MMP2 (Homo sapiens, UniProt P08253)", "assay": "substrate, fluorescence", "endpoint": "substrate release rate constant", "value": "0.07 h⁻¹"}
{"Substance": "insulin human", "assay": "measured: GOT2 mRNA", "system": "uninfected mouse, brain", "conditions": "i.p., dose not given", "how to read": "baseline: PBS", "endpoint": "fold change", "value": 1.07}
{"Substance": "mitragynine", "assay": "substrate", "system": "human liver S9", "conditions": "10 min, 2", "endpoint": "Km", "value": "1.06 µM"}
{"Substance": "tetrahydrofolate", "tested on": "SHMT2 (Homo sapiens, UniProt P34897, Y105F)", "assay": "substrate, MTHFD2-coupled NADH fluorescence", "conditions": "Y105F mutant, together with: serine 200 mM", "endpoint": "Km", "value": "47 µM"}
{"Substance": "dynorphin", "tested on": "HCRTR2 (Homo sapiens, UniProt O43614, del254-292/I293E/K294R/L160H/M161K/Q254E)", "assay": "sensor fluorescence, fluorescence imaging", "system": "HEK293T", "conditions": "concentration not given, unit not given", "how to read": "baseline: baseline", "endpoint": "ΔF/F0", "value": "-0.114 and -0.293 and 0.183 and 0.574 and -2.04 and 1.69 and 0.0195 and -2.12"}
{"Substance": "SFLLRNPNDKYEPF", "tested on": "BPAEC", "assay": "calcium response", "system": "peptide", "conditions": "100 µM, together with: alpha-thrombin challenge", "endpoint": "recovery time from desensitisation", "value": "~60 min"}
{"Substance": "ETTLKSF", "assay": "fluorescence microscopy", "system": "peptide, trypsin-treated human erythrocytes", "conditions": "concentration not given", "endpoint": "binding", "value": "binds"}
{"Substance": "evodiamine", "tested on": "ACHE (Homo sapiens, UniProt P22303)", "assay": "enzyme activity, inhibitor", "endpoint": "IC50", "value": "inactive"}
{"Substance": "ibogaine", "tested on": "SLC6A3 (Homo sapiens, UniProt Q01959)", "assay": "transporter current, inhibitor, electrophysiology", "conditions": "together with: dopamine 30 µM", "endpoint": "maximal apparent inhibition rate", "value": "5.99 s⁻¹"}
{"Substance": "maxadilan", "tested on": "ADCYAP1R1 (Homo sapiens, UniProt P41586)", "assay": "calcium mobilization, agonist, Fluo-8 AM", "system": "COS-7", "conditions": "AUC over 2 min", "endpoint": "Emax", "value": "77 ± 7%"}
{"Substance": "Ac-APPIPPPRRKR-NH2 (N-acetyl, C-amide)", "tested on": "Tyrosine-protein kinase Fyn, SH3 domain (FYN, Homo sapiens, UniProt P06241)", "assay": "binding, C-D FTIR probe", "system": "peptide", "conditions": "4 mM, pH 7.0, band C, FYN complex, peptide P-1", "endpoint": "asymmetric stretch frequency", "value": "2252.6 ± 1.1 cm⁻¹"}
{"Substance": "(−)-cocaine", "tested on": "Sodium channel protein type 4 alpha, BTX-activated (Oryctolagus cuniculus, UniProt G1SLL9)", "assay": "channel gating", "endpoint": "mean open time", "value": "263 ms"}
{"note": "Excerpt of the above:"}
{"Substance": "SFLLRNPNDKYEPF", "tested on": "BPAEC", "assay": "calcium response", "system": "peptide", "conditions": "100 µM, together with: alpha-thrombin challenge", "endpoint": "recovery time from desensitisation", "value": "~60 min"}
{"Substance": "(−)-cocaine", "tested on": "Sodium channel protein type 4 alpha, BTX-activated (Oryctolagus cuniculus, UniProt G1SLL9)", "assay": "channel gating", "endpoint": "mean open time", "value": "263 ms"}
